Measured values collected from several papers.
Parts stem from different laboratories: compare values within a part only.
UniProt P57078, sequence (whole entry, looked up): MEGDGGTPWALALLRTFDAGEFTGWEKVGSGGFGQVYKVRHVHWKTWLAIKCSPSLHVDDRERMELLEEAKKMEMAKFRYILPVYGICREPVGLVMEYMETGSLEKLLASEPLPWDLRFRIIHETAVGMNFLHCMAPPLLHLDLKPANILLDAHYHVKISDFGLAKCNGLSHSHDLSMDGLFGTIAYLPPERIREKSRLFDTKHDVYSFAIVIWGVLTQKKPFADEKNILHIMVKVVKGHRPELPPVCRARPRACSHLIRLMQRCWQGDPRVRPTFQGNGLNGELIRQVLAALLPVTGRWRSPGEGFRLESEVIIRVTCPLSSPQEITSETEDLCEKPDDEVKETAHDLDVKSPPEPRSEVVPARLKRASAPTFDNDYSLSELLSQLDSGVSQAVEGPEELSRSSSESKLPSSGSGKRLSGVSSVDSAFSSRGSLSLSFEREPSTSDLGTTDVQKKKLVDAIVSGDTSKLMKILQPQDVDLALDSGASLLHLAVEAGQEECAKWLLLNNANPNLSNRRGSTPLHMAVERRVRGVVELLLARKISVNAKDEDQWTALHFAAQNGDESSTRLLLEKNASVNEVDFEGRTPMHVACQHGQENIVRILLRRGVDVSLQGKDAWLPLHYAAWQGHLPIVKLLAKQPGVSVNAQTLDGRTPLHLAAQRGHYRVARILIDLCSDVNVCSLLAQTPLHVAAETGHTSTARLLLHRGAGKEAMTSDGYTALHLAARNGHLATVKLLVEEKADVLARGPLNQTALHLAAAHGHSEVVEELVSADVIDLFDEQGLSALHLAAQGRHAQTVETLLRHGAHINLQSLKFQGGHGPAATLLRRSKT
UniProt Q96J92, sequence (whole entry, looked up): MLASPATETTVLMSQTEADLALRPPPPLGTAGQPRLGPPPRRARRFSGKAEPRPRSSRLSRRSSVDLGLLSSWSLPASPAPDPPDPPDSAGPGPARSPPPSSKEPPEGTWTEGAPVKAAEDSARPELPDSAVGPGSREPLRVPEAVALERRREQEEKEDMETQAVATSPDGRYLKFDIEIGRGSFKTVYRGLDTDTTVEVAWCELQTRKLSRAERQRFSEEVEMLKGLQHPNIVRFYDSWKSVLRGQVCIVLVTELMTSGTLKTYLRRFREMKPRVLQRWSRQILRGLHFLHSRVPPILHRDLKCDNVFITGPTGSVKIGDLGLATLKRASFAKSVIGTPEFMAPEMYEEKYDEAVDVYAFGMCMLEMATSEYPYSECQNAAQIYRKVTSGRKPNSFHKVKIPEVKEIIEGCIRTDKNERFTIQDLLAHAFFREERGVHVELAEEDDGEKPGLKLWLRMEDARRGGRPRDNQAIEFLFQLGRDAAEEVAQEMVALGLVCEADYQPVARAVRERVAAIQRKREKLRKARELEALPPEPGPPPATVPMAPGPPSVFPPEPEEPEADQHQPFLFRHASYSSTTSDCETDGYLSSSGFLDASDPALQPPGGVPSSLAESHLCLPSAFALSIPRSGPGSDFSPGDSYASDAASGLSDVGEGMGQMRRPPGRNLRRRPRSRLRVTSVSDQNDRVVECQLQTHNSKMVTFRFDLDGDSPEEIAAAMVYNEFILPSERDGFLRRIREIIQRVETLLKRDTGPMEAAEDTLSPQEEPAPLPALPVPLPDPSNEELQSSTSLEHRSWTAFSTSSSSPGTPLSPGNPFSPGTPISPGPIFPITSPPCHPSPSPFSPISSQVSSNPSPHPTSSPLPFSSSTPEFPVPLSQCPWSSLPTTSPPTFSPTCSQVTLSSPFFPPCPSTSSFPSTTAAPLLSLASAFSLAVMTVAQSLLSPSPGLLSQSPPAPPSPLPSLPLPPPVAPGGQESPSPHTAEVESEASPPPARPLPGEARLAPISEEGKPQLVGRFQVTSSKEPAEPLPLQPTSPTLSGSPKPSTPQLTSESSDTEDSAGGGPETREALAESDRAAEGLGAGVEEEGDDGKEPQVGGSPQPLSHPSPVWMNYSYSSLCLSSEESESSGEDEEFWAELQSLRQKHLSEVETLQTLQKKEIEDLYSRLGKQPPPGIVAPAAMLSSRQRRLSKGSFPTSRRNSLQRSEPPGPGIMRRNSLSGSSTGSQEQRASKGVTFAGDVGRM

Series 1
Target: DNA polymerase theta, ATPase domain (POLQ, Homo sapiens, UniProt O75417)
UniProt O75417, sequence (whole entry, unmodified, looked up): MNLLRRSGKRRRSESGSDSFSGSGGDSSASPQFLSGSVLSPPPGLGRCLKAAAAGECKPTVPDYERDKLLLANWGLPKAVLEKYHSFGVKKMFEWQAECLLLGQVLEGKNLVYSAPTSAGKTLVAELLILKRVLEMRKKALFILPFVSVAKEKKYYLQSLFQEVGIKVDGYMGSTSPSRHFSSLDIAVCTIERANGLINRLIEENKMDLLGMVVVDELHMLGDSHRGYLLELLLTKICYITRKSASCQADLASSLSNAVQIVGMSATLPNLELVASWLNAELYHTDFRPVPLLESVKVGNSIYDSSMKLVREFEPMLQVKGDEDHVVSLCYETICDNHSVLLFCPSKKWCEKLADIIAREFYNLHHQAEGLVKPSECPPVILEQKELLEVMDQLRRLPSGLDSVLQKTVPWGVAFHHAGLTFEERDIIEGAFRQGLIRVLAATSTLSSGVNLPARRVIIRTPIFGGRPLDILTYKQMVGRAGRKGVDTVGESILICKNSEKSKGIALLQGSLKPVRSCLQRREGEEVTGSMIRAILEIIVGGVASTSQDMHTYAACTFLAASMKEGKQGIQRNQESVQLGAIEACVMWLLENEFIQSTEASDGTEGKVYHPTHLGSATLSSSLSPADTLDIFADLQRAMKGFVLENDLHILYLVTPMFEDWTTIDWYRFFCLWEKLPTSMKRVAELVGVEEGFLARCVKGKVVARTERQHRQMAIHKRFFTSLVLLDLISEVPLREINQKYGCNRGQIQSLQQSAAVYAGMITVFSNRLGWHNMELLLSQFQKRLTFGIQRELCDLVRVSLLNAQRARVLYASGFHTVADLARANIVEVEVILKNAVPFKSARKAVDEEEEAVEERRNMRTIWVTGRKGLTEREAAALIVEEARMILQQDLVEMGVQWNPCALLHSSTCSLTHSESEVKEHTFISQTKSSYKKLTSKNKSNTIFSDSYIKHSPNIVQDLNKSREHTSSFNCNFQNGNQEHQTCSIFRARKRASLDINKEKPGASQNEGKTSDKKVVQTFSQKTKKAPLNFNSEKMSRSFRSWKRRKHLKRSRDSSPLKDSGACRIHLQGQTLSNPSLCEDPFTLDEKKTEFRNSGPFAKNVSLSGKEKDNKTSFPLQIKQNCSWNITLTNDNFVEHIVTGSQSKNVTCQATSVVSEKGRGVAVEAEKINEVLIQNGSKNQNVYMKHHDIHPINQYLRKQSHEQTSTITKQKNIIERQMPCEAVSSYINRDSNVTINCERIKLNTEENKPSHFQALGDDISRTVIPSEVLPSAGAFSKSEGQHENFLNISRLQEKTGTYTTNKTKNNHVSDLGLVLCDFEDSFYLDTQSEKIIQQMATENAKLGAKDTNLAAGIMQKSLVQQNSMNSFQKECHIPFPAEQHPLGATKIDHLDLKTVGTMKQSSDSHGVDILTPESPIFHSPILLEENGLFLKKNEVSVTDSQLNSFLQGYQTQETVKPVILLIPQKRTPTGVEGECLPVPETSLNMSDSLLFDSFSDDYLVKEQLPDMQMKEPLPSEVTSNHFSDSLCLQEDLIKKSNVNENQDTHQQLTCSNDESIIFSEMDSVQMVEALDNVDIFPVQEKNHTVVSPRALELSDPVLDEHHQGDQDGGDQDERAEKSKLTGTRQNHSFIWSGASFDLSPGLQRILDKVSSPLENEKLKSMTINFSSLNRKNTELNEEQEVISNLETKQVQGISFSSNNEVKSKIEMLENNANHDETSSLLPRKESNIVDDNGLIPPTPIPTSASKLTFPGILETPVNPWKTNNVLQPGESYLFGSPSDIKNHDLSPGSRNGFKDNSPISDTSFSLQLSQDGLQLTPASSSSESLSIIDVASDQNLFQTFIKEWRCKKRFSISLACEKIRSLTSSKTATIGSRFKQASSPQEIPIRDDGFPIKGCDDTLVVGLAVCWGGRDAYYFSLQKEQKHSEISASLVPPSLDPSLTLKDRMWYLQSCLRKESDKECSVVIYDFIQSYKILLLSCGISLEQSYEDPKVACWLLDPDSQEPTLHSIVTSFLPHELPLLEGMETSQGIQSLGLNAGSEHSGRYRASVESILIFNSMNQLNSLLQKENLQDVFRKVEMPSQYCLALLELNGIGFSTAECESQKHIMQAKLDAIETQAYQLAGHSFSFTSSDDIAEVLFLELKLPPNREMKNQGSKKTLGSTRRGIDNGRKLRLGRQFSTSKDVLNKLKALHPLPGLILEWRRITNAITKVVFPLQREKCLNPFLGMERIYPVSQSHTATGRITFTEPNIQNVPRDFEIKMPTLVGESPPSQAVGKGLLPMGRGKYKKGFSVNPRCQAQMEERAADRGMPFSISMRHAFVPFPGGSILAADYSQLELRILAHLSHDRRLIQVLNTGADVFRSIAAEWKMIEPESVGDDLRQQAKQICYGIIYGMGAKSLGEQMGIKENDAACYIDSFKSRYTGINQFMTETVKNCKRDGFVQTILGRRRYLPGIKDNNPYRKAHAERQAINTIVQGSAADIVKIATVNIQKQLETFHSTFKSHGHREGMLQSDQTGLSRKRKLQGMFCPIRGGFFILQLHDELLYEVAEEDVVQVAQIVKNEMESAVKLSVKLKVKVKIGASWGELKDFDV
Effect on: enzyme activity
Mode: inhibitor
Tested at: 77 µM
| Structure (SMILES) | remaining activity |
| --- | --- |
| CC(C)(C)NC[C@H](O)c1ccc(O)c(CO)c1 | 99.8% |
| Cc1ccc(O)c([C@H](CCN(C(C)C)C(C)C)c2ccccc2)c1 | 100% |
| O=c1c2ccccc2oc2ccccc12 | 102% |
| CNC(=C[N+](=O)[O-])NCCSCc1ccc(CN(C)C)o1 | 101% |
| O=C(CCCN1CCC(O)(c2ccc(Cl)cc2)CC1)c1ccc(F)cc1 | 103% |
| NC1(Cc2ccc(Cl)cc2)CCN(c2ncnc3[nH]ccc23)CC1 | 97.9% |
| CC[C@H](Nc1ncnc2[nH]cnc12)c1nc2cccc(F)c2c(=O)n1-c1ccccc1 | 95.5% |
| CCN(CC)C(=O)[C@]1(c2ccccc2)C[C@@H]1CN (racemic) | 96.1% |
| COc1ccc(C[C@@H](C)NC[C@H](O)c2ccc(O)c(NC=O)c2)cc1 (relative stereo) | 114% |

Series 2
Target: Serine/threonine-protein kinase 38 (STK38, Homo sapiens, UniProt Q15208)
UniProt Q15208, sequence (whole entry, looked up): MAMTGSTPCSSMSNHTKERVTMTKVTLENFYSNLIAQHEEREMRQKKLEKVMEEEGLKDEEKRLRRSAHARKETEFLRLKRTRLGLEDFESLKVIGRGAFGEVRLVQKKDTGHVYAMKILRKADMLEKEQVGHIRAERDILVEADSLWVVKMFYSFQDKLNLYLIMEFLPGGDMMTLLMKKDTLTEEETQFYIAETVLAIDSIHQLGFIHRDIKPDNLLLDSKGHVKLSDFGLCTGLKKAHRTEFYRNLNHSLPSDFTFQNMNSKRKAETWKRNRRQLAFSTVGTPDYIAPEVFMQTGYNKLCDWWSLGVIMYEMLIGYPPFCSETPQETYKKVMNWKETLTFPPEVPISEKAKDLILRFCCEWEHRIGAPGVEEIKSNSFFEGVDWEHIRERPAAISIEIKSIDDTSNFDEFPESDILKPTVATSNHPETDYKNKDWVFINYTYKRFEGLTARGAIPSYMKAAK
Effect on: enzyme activity
Mode: inhibitor
Tested at: 0.5 µM
Reference: control
| Structure (SMILES) | remaining activity |
| --- | --- |
| N#C/C(=C\c1ccc(O)c(O)c1)C(=O)NCc1ccccc1 | 99.1% |
| COc1cc2ncnc(Nc3cccc(Cl)c3)c2cc1OC | 104% |
| CCOc1nc(NC(=O)Cc2cc(OC)ccc2OC)cc(N)c1C#N | 102% |
| Cn1nc2c3c(cccc31)C(=O)c1ccccc1-2 | 98.5% |
| N#Cc1c(NC(=O)c2cccc3ccccc23)sc2c1CCCC2 | 97.7% |
| COc1cc2c(cc1OC)-c1[nH]nc(Nc3cccc(F)c3)c1C2 | 113% |
| O=C1C(Cl)=C(N2C(=O)CCC2=O)C(=O)c2ccccc21 | 102% |
| CCN(CC)CCNC(=O)c1c(C)[nH]c(/C=C2\C(=O)Nc3ccc(F)cc32)c1C | 93.8% |
| Cc1cn(-c2cc(NC(=O)c3ccc(C)c(Nc4nccc(-c5cccnc5)n4)c3)cc(C(F)(F)F)c2)cn1 | 98% |
| CN([C@@H](Cc1ccc(OS(=O)(=O)c2cccc3cnccc23)cc1)C(=O)N1CCN(c2ccccc2)CC1)S(=O)(=O)c1cccc2cnccc12 | 97.2% |
| C[C@@H]1CCN(C(=O)CC#N)C[C@@H]1N(C)c1ncnc2[nH]ccc12 | 95.7% |
| Cc1cc2ncc(-c3ccccc3)nc2cc1C | 94.7% |
| CN(C)C[C@H]1CCn2c(c(C3=C(c4cn(C)c5ccccc45)C(=O)NC3=O)c3ccccc32)C1 | 96.7% |
| CCN(CC)CCNC(=O)c1c(C)[nH]c(/C=C2\C(=O)Nc3ccc(Cl)cc32)c1C | 95.8% |
| c1ccc(-c2[nH]ncc2-c2ccnc3ccccc23)nc1 | 111% |

Series 3
Compound: CCOCCn1cc(C(=O)Nc2ccc(-n3nc(-c4cccnc4)cc3C(F)(F)F)cn2)ccc1=O
Technique: competition with immobilised ligand
Tested at: 1 µM
| target | effect on | remaining binding [%] |
| --- | --- | --- |
| Vascular endothelial growth factor receptor 2 (KDR, Homo sapiens, UniProt P35968) | cell-free assay | 81 |
| Serine/threonine-protein kinase TNNI3K (TNNI3K, Homo sapiens, UniProt Q59H18) | cell-free assay | 100 |
| Interferon-induced, double-stranded RNA-activated protein kinase (EIF2AK2, Homo sapiens, UniProt P19525) | cell-free assay | 100 |
| Casein kinase I isoform epsilon (CSNK1E, Homo sapiens, UniProt P49674) | cell-free assay | 100 |
| Receptor-interacting serine/threonine-protein kinase 4 (RIPK4, Homo sapiens, UniProt P57078) | cell-free assay | 81 |
| Discoidin domain-containing receptor 2 (DDR2, Homo sapiens, UniProt Q16832) | cell-free assay | 100 |
| MAP kinase-interacting serine/threonine-protein kinase 1 (MKNK1, Homo sapiens, UniProt Q9BUB5) | cell-free assay | 97 |
| Cyclin-dependent kinase 14 (CDK14, Homo sapiens, UniProt O94921) | cell-free assay | 100 |
| Cyclin-dependent kinase 15 (CDK15, Homo sapiens, UniProt Q96Q40) | cell-free assay | 100 |
| Ephrin type-B receptor 2 (EPHB2, Homo sapiens, UniProt P29323) | cell-free assay | 61 |
| Wee1-like protein kinase 2 (WEE2, Homo sapiens, UniProt P0C1S8) | cell-free assay | 100 |
| Receptor-type tyrosine-protein kinase FLT3 (FLT3, Homo sapiens, UniProt P36888, ITD) | cell-free assay | 79 |
| Epidermal growth factor receptor (EGFR, Homo sapiens, UniProt P00533, del747-752/P753S) | cell-free assay | 98 |
| Myosin-IIIb (MYO3B, Homo sapiens, UniProt Q8WXR4) | binding | 96 |
| Inhibitor of nuclear factor kappa-B kinase subunit epsilon (IKBKE, Homo sapiens, UniProt Q14164) | cell-free assay | 79 |
| Tyrosine-protein kinase ABL1, phosphorylated (ABL1, Homo sapiens, UniProt P00519) | cell-free assay | 61 |
| cGMP-dependent protein kinase 2 (PRKG2, Homo sapiens, UniProt Q13237) | cell-free assay | 100 |
| cAMP-dependent protein kinase catalytic subunit PRKX (PRKX, Homo sapiens, UniProt P51817) | cell-free assay | 100 |
| Activin receptor type-2A (ACVR2A, Homo sapiens, UniProt P27037) | cell-free assay | 100 |
| Serine/threonine-protein kinase Nek7 (NEK7, Homo sapiens, UniProt Q8TDX7) | cell-free assay | 100 |
| Tyrosine-protein kinase JAK3, JH1 (JAK3, Homo sapiens, UniProt P52333) | cell-free assay | 100 |
| Receptor-type tyrosine-protein kinase FLT3 (FLT3, Homo sapiens, UniProt P36888, D835V) | cell-free assay | 100 |
| Serine/threonine-protein kinase WNK4 (WNK4, Homo sapiens, UniProt Q96J92) | cell-free assay | 91 |
| Cyclin-G-associated kinase (GAK, Homo sapiens, UniProt O14976) | cell-free assay | 100 |
| Aurora kinase A (AURKA, Homo sapiens, UniProt O14965) | cell-free assay | 85 |

Other studies, line by line
| Structure (SMILES) | species | dose | notes | quantity | result |
| --- | --- | --- | --- | --- | --- |
| CC(C)n1cnc(-c2ccc(F)cc2)c1-c1ncc(C(=O)Nc2ccc(N3CCN(C)CC3)cc2)[nH]1 | IPF patients | 60 mg once daily | adverse event | carbon dioxide decreased incidence | 0% |

For quick reference, copied from above (series 2):
| Structure (SMILES) | remaining activity |
| --- | --- |
| N#Cc1c(NC(=O)c2cccc3ccccc23)sc2c1CCCC2 | 97.7% |
| COc1cc2c(cc1OC)-c1[nH]nc(Nc3cccc(F)c3)c1C2 | 113% |
| Cn1nc2c3c(cccc31)C(=O)c1ccccc1-2 | 98.5% |
| COc1cc2ncnc(Nc3cccc(Cl)c3)c2cc1OC | 104% |
